Experimental data of several laboratories.
± marks the error that the study gave.

`CCN(Cc1ccccc1)C(=O)CCc1nc(CN2CCN(C(=O)Cc3ccc(OC)c(OC)c3)CC2)no1` — result for “action potential threshold”: -4.3 ± 2.88 mV (current clamp; L4-L6 DRG neurons, rat CCI model; 10 µM, together with: 500 pA current injection).
`COc1ccc(F)cc1S(=O)(=O)Nc1cnc2c(c1)C(=O)NCCO2` — result for “plasma PPi level”: “increased” (refers to: pyrophosphate; C57BL/6J mouse; oral, 1 or 10 mg/kg, first 6 h; relative to: vehicle).
`CC[C@H](C)[C@H](NC(=O)[C@H](Cc1ccccc1)NC(=O)[C@H](CCC(N)=O)NC(=O)[C@H](CCSC)NC(=O)[C@@H](NC(=O)[C@H](CCC(N)=O)NC(=O)[C@H](CCCCN)NC(=O)[C@H](Cc1ccc(O)cc1)NC(=O)[C@H](Cc1ccccc1)NC(=O)[C@H](CCCCN)NC(=O)[C@H](CCCCN)NC(=O)[C@@H](NC(=O)[C@H](Cc1ccccc1)NC(=O)[C@@H]1CCCN1C(=O)[C@H](Cc1c[nH]c2ccccc12)NC(=O)CNC(=O)[C@H](Cc1ccccc1)NC(=O)[C@H](CCCCN)NC(=O)[C@H](C)NC(=O)[C@@H](NC(=O)[C@H](CC(C)C)NC(=O)[C@H](CCCCN)NC(=O)[C@H](C)NC(=O)[C@H](CCCNC(=N)N)NC(=O)[C@H](C)NC(=O)CNC(=O)[C@@H](N)CCSC)C(C)C)[C@@H](C)CC)[C@@H](C)CC)C(=O)NCC(=O)N[C@@H](CCC(N)=O)C(=O)NCC(=O)N[C@@H](Cc1c[nH]c2ccccc12)C(=O)N[C@H](C(=O)N[C@H](C(=O)N[C@@H](CC(=O)O)C(=O)N[C@@H](CCC(N)=O)C(=O)N[C@H](C(=O)N[C@@H](CCC(=O)O)C(=O)N[C@@H](CCCCN)C(=O)N[C@@H](Cc1c[nH]c2ccccc12)C(=O)N[C@@H](CC(C)C)C(=O)N[C@@H](CCCCN)C(=O)N[C@@H](CCCNC(=N)N)C(=O)N[C@@H](Cc1c[nH]cn1)C(=O)O)[C@@H](C)CC)[C@@H](C)CC)[C@@H](C)O` gave a calcein release of 24% (PG/PE 1:1 liposomes; MIC; relative to: Triton X-100).
`CCCc1cc(Cc2ccccc2)cc2c1NCCC2NC(=O)C(N)Cc1c(C)cc(O)cc1C` (stereo not shown): antinociception “inactive” (warm water tail withdrawal; male C57BL/6 mice; intraperitoneal, 10 mg/kg).
For `CC(C)C[C@@H]1NC(=O)[C@H](C(C)C)NC(=O)[C@H](CO)NC(=O)CNC(=O)CNC(=O)[C@H](CCCNC(=N)N)NC(=O)[C@@H]2CCCN2C(=O)[C@@H](NC(=O)CC[C@H](NC(=O)c2ccc(N(C)Cc3cnc4nc(N)nc(N)c4n3)cc2)C(=O)O)C(C)(C)SSC[C@@H](C(=O)O)NC(=O)CNC(=O)[C@H]([C@@H](C)O)NC(=O)[C@H](C(C)C)NC1=O`, “spleen weight increase suppression” read 78% (rat adjuvant arthritis; intravenous, 5 mg/kg once daily, day 14; relative to: arthritis vehicle).
`CC[C@H](C)[C@H](NC(=O)[C@H](Cc1c[nH]c2ccccc12)NC(=O)[C@H](CCCNC(=N)N)NC(=O)[C@H](CCCCN)NC(=O)[C@H](CC(C)C)NC(=O)[C@H](CC(=O)O)NC(=O)[C@H](Cc1ccccc1)NC(=O)[C@H](C)NC(=O)[C@H](Cc1ccc(O)cc1)NC(=O)[C@H](CC(N)=O)NC(=O)[C@H](Cc1ccc(O)cc1)NC(=O)[C@H](CCCNC(=N)N)NC(=O)[C@H](Cc1ccc(O)cc1)NC(=O)[C@H](Cc1ccc(O)cc1)NC(=O)[C@@H](NC(=O)[C@H](CC(C)C)NC(=O)[C@H](C)NC(=O)[C@H](CC(N)=O)NC(=O)[C@H](Cc1ccc(O)cc1)NC(C)=O)[C@@H](C)CC)C(=O)N[C@@H](Cc1ccc(O)cc1)C(=O)N[C@@H](CC(C)C)C(N)=O` — result for “α4β7− CCR9+ cells”: 9.09% (refers to: HA-02 tetramer; antigen-experienced tetramer+ CD4 T cells, healthy adults, HLA-DRB1*0101; dose not given).
With `CC[C@H](C)[C@H](NC(=O)[C@H](C)NC(=O)CNC(=O)[C@@H](N)CCSC)C(=O)N[C@@H](C)C(=O)N[C@@H](CCCCN)C(=O)N[C@@H](CCCNC(=N)N)C(=O)N[C@H](C(=O)N[C@@H](C)C(=O)N[C@@H](CCCCN)C(=O)N[C@@H](Cc1ccccc1)C(=O)NCC(=O)N[C@@H](Cc1c[nH]c2ccccc12)C(=O)N1CCC[C@H]1C(=O)N[C@@H](Cc1ccccc1)C(=O)N[C@H](C(=O)N[C@@H](CCCCN)C(=O)N[C@@H](CCCCN)C(=O)N[C@@H](Cc1ccccc1)C(=O)N[C@@H](Cc1ccc(O)cc1)C(=O)N[C@@H](CCCCN)C(=O)N[C@@H](CCC(N)=O)C(=O)N[C@H](C(=O)N[C@@H](CCSC)C(=O)N[C@@H](CCC(N)=O)C(=O)N[C@@H](Cc1ccccc1)C(=O)N[C@H](C(=O)NCC(=O)N[C@@H](CCC(N)=O)C(=O)NCC(=O)N[C@@H](Cc1c[nH]c2ccccc12)C(=O)N[C@H](C(=O)N[C@H](C(=O)N[C@@H](CC(=O)O)C(=O)N[C@@H](CCC(N)=O)C(=O)N[C@H](C(=O)N[C@@H](CCC(=O)O)C(=O)N[C@@H](CCCCN)C(=O)N[C@@H](Cc1c[nH]c2ccccc12)C(=O)N[C@@H](CC(C)C)C(=O)N[C@@H](CCCCN)C(=O)N[C@@H](CCCNC(=N)N)C(=O)N[C@@H](Cc1c[nH]cn1)C(=O)O)[C@@H](C)CC)[C@@H](C)CC)[C@@H](C)O)[C@@H](C)CC)[C@@H](C)CC)[C@@H](C)CC)C(C)C` the calcein release was 27.7 ± 1.2% (PG/PE 1:1 liposomes; MIC; relative to: Triton X-100).
The licking time of `COC[C@@H](NC(C)=O)C(=O)NCc1ccc(OCc2cccc(Cl)c2)cc1` is reported as 41% (formalin test, phase I; mouse; ip, 5.0 mg/kg; relative to: vehicle).
`CSCC[C@H](NC(=O)CNC(=O)[C@H](CC(=O)O)NC(=O)[C@@H](NC(=O)[C@@H](NC(=O)[C@@H](NC(=O)CNC(=O)[C@H](CCC(N)=O)NC(=O)[C@H](CCSC)NC(=O)[C@H](CC(=O)O)NC(=O)[C@H](C)NC(=O)[C@H](C)NC(=O)[C@@H](NC(=O)[C@H](CO)NC(=O)[C@@H](N)CC(C)C)[C@@H](C)O)C(C)C)C(C)C)[C@@H](C)O)C(=O)N[C@@H](C)C(=O)N[C@@H](CO)C(=O)NCC(=O)N[C@@H](CC(C)C)C(=O)N[C@@H](CC(=O)O)C(=O)N[C@@H](CCCCN)C(=O)N[C@@H](CC(=O)O)C(=O)N[C@@H](Cc1ccc(O)cc1)C(=O)N[C@@H](CC(C)C)C(=O)N[C@@H](CCCCN)C(=O)N1CCC[C@H]1C(=O)N[C@@H](CC(=O)O)C(=O)N[C@@H](CC(=O)O)C(=O)O`: “complete response duration” 139 weeks (human; dose not given).
For `C[C@]12CC[C@H](O)CC1CCC1C2[C@H](O)C(=O)[C@]2(C)[C@@H](c3ccc(=O)oc3)CC[C@]12O` (stereo partly shown), the Vmax was 0.032 ± 0.002 nmol/min/mg (sulfation, substrate; rat liver cytosol).
`CSCCNC(=O)CCC(C)C1CCC2C3C(O)CC4CC(O)CCC4(C)C3CCC12C` (stereo not shown): “CA-derived bile acids” “increased” (SPF mice, faeces; oral gavage, 50 mg/kg daily, 14 days; relative to: vehicle).
`CC[C@H](C)[C@H](NC(=O)[C@H](CCCCN)NC(=O)CNC(=O)[C@H](CC(C)C)NC(=O)[C@@H](NC(=O)[C@H](C)NC(=O)[C@H](CCCCN)NC(=O)CNC(=O)[C@H](C)NC(=O)CNC(=O)[C@H](CCCCN)NC(=O)[C@H](CCSC)NC(=O)[C@H](CCCCN)NC(=O)[C@@H](NC(=O)[C@H](Cc1c[nH]c2ccccc12)NC(=O)[C@H](CC(C)C)NC(=O)[C@H](CCC(=O)O)NC(=O)[C@H](CCCCN)NC(=O)[C@H](CC(C)C)NC(=O)[C@@H](N)CC(C)C)[C@@H](C)O)C(C)C)C(=O)N[C@@H](CCCCN)C(=O)NCC(=O)N[C@@H](CC(C)C)C(=O)N[C@@H](CC(C)C)C(=O)O` gave a calcein leakage of about 15% (calcein release; PC-containing vesicles, 200 µM lipid; 15 µM, 1 h; relative to: Triton X-100).
`CS(C)(=O)=Nc1ccc(-c2ccc(-c3nc4cc(O[C@@H]5CO[C@H]6[C@@H]5OC[C@H]6O)[nH]c4cc3F)cc2)cc1` — result for plasma cholesterol: “no effect” (ob/ob mouse, AMLN diet NASH model; oral, 5 mg/kg daily, 8 weeks; relative to: vehicle).
Under “α4β7− CCR9− cells”, `CC[C@H](C)[C@H](NC(=O)[C@H](CCCNC(=N)N)NC(=O)[C@H](CCC(N)=O)NC(=O)[C@H](CC(=O)O)NC(=O)[C@H](CC(C)C)NC(=O)[C@H](CC(C)C)NC(=O)[C@H](CC(N)=O)NC(=O)[C@H](Cc1ccccc1)NC(=O)[C@H](CC(=O)O)NC(=O)[C@@H](NC(=O)[C@@H](NC(=O)[C@H](CC(N)=O)NC(=O)CNC(=O)[C@H](CO)NC(C)=O)C(C)C)[C@@H](C)CC)C(=O)N[C@H](C(=O)N[C@@H](Cc1c[nH]c2ccccc12)C(=O)N[C@@H](CCC(N)=O)C(=O)N[C@@H](CC(N)=O)C(=O)N[C@@H](Cc1c[nH]c2ccccc12)C(=O)N[C@@H](Cc1ccc(O)cc1)C(=O)N[C@@H](C)C(N)=O)[C@@H](C)CC` is recorded as 26.9% (refers to: HA-51 tetramer; antigen-experienced tetramer+ CD4 T cells, healthy adults, HLA-DRB1*0101; dose not given).
With `O=C(O)CCn1c(=O)oc2cc(Cl)c(Cl)cc21` the urea level was 10.7 ± 0.8 mmol/L (rat, acute pancreatitis, serum; dose not given, 6 h).
Under “log2 fold change”, `Cc1ccc(/C=C/C(=O)O)cc1-c1cc2c(cc1C)C(C)(C)CCC2(C)C` is recorded as 0.2 (RNA sequencing, refers to: Upp1; rat, brain; dose not given, 24 h; relative to: vehicle).
With `COC[C@@H](NC(C)=O)C(=O)NCc1ccc(OCc2ccccc2F)cc1` the licking time was 49% (formalin test, phase II; mouse; ip, 7.0 mg/kg; relative to: vehicle).
Under “α4β7− CCR9+ cells”, `CC[C@H](C)[C@H](NC(=O)[C@@H](NC(=O)[C@H](CC(=O)O)NC(C)=O)[C@@H](C)O)C(=O)N[C@@H](CCCNC(=N)N)C(=O)N[C@@H](CC(C)C)C(=O)N[C@@H](CC(C)C)C(=O)N[C@@H](Cc1ccccc1)C(=O)N[C@@H](CCC(N)=O)C(=O)N[C@@H](CC(C)C)C(=O)N[C@@H](CCSC)C(=O)N[C@@H](CCCNC(=N)N)C(=O)N1CCC[C@H]1C(=O)N1CCC[C@H]1C(=O)N[C@@H](CC(N)=O)C(=O)N[C@@H](CCSC)C(=O)N[C@H](C(=O)N1CCC[C@H]1C(=O)N[C@@H](C)C(=O)N[C@H](C(=O)N[C@@H](CC(N)=O)C(=O)N[C@@H](C)C(N)=O)C(C)C)[C@@H](C)O` is recorded as 0% (refers to: HA-29 tetramer; antigen-experienced tetramer+ CD4 T cells, healthy adults, HLA-DRB1*0101; dose not given).
`Cc1cc(O)cc(C)c1CC(N)C(=O)NC1CCNc2c(CN3CCOCC3)cc(Cc3ccccc3)cc21` (stereo not shown): antinociception “inactive” (warm water tail withdrawal; male C57BL/6 mice; intraperitoneal, 10 mg/kg).

A few entries again:
With `O=C(O)CCn1c(=O)oc2cc(Cl)c(Cl)cc21` the urea level was 10.7 ± 0.8 mmol/L (rat, acute pancreatitis, serum; dose not given, 6 h).
Under “log2 fold change”, `Cc1ccc(/C=C/C(=O)O)cc1-c1cc2c(cc1C)C(C)(C)CCC2(C)C` is recorded as 0.2 (RNA sequencing, refers to: Upp1; rat, brain; dose not given, 24 h; relative to: vehicle).
